{"data": "Assay results gathered from unrelated publications", "note": "“And” joins repeats or separate records; there may be more than shown. ± gives the spread as reported."}
{"Compound": "COc1ccccc1-c1ccncc1C(=O)Nc1ccc(OCc2ccc(Cl)cc2)nn1", "cell line": "DLD-1 BRCA2-/-", "setting": "10 µM", "how to read": "baseline: untreated", "measurement": "colony survival", "value": "98.3% and 102% and 98%"}
{"Compound": "Cc1cc(NC2CCN(C)CC2)ccc1-c1cc2c(N3CCC[C@H](C(=O)N4CCCC4)C3)ncnc2[nH]1", "cell line": "NCI-H2228", "test": "cell growth or viability, MTT", "setting": "0.008 µg/mL, 72 h", "measurement": "inhibition", "value": "7.34%"}
{"Compound": "O=C(CCCCCOc1ccc2ccccc2c1)N[C@@H](CO)C[C@@H](O)c1ccc(-c2ccccc2)cc1", "cell line": "HeLa", "test": "HPLC-MS-MS lipidomics, item: C18 SM and ceramide", "setting": "1 µM, 24 h", "how to read": "baseline: SM over Cer", "measurement": "SM/Cer ratio", "value": "26 ,1"}
{"Compound": "COc1ccc(NC(=O)CSc2nc3c(oc4ccccc43)c(=O)n2Cc2ccco2)cc1Cl", "cell line": "LDR", "test": "silenced CMV-GFP reporter derepression, qHTS", "measurement": "Emax", "value": "72%"}
{"Compound": "C=CC(=O)N1[C@H](c2ccc3c(c2)OCO3)c2[nH]c3ccccc3c2C[C@H]1C(=O)N1CCOCC1", "cell line": "22Rv1 SF3B1 C1111S", "test": "ATAC-seq", "setting": "concentration not given", "measurement": "altered sites with FOXA1 binding", "value": "> 70%"}
{"Compound": "COc1ccc2c(c1)OC1=C(C(=O)CCC1)C2c1c[nH]c2ccccc12 (stereo not shown)", "cell line": "3T3-L1 adipocytes", "test": "qPCR, item: adiponectin", "setting": "IC20, 14 days", "how to read": "baseline: untreated mature adipocytes", "measurement": "mRNA level", "value": "increased"}
{"Compound": "COC(=O)c1cc(NC2=NC(=O)C(=Cc3ccc(N(C)C)cc3)S2)ccc1OC(C)=O", "cell line": "MCF7", "test": "GC-MS, item: L-Threonine", "setting": "1 µM", "how to read": "baseline: DMSO", "measurement": "metabolite level", "value": "-0.55 fold change"}
{"Compound": "CNS(=O)(=O)Nc1nccc(Cc2c(C)c3ccc(Oc4ncccc4F)cc3oc2=O)c1F", "cell line": "SU-DHL10", "test": "cell viability", "setting": "7 days", "measurement": "IC50", "value": "0.00134 µM"}
{"Compound": "Cc1cc(N)ccc1-c1cc2c(N3CCC[C@H](C(=O)NCc4ccc(OC(F)(F)F)cc4)C3)ncnc2[nH]1", "cell line": "NCI-H2228", "test": "cell growth or viability, MTT", "setting": "0.2 µg/mL, 72 h", "measurement": "inhibition", "value": "68.2%"}
{"Compound": "O=C(C[Se]C(=O)c1ccccc1Nc1ccccc1)Nc1cccc(C(F)(F)F)c1", "cell line": "NCI60 renal subpanel", "test": "cell growth, inhibitor", "setting": "five-dose", "measurement": "GI50", "value": "1.83 µM"}
{"Compound": "Cc1ccc(-n2cc(CSc3nc4ccccc4n3Cc3cn(-c4ccc(C)cc4)nn3)nn2)cc1", "cell line": "Caco-2", "test": "MTT", "setting": "7.81 ppm", "measurement": "viability", "value": "61.4%"}
{"Compound": "CN1CCCNC(=O)c2cccc(c2)C(=O)NCCCN(C)CCCNc2cccc3c2C(=O)c2cccc(c2C3=O)NCCC1", "cell line": "SAS", "test": "RNA-Seq, item: ERMAP mRNA", "setting": "1 µM, 6 h", "how to read": "baseline: untreated cells", "measurement": "log2 fold change", "value": 1.52}
{"Compound": "CCN(CC)CC(=O)Nc1cccc(-n2cc(-c3ccc4ccc(-c5cn(-c6cccc(NC(=O)CN(CC)CC)c6)nn5)cc4c3)nn2)c1", "cell line": "RCC4", "test": "PCR angiogenesis array, item: EFNA1", "setting": "5 x IC50, 4 h, normoxia", "how to read": "baseline: untreated", "measurement": "fold regulation", "value": -1.2}
{"Compound": "Cc1ncsc1-c1ccc(C(C)NC(=O)C2CC(O)CN2C(=O)C(NC(=O)CCCCCCCCCCN2CCCC(Nc3ncc(Cl)c(Nc4ccccc4S(=O)(=O)C(C)C)n3)C2)C(C)(C)C)cc1 (stereo not shown)", "cell line": "22Rv1", "test": "RNA-seq, item: ZNF773 mRNA", "setting": "concentration not given", "how to read": "baseline: DMSO", "measurement": "log2 fold change", "value": -1.82}
{"Compound": "N=C(S)N/N=C/c1ncc(C(F)(F)F)cc1Cl", "cell line": "LDR", "test": "silenced CMV-GFP reporter derepression, qHTS", "measurement": "EC50", "value": "3.98 µM"}
{"Compound": "O=C(NCc1ccc(OC(F)(F)F)cc1)[C@H]1CCCN(c2ncnc3[nH]c(-c4cccs4)cc23)C1", "cell line": "NCI-H2228", "test": "cell growth or viability, MTT", "setting": "0.008 µg/mL, 72 h", "measurement": "inhibition", "value": "15.2%"}
{"Compound": "CCCC[C@H](NC(=O)[C@H](CC(C)C)NC(=O)[C@H](CO)NC(=O)[C@H](CO)NC(=O)[C@H](C)NC(=O)[C@H](CO)NC(=O)[C@H](C)N)C(=O)N[C@@H](CC(=O)O)C(=O)N[C@@H](CCCCN)C(=O)N[C@@H](CCC(=O)O)C(=O)N[C@@H](C)C(=O)N[C@H](C(=O)N[C@@H](Cc1ccc(O)cc1)C(=O)N[C@@H](Cc1ccccc1)C(=O)N[C@@H](C)C(=O)N[C@@H](Cc1c[nH]cn1)C(=O)N[C@@H](CC(C)C)C(=O)N[C@@H](CC(=O)O)C(=O)N[C@H](C(=O)N[C@H](C(=O)N[C@@H](Cc1c[nH]c2ccccc12)C(=O)O)[C@@H](C)CC)[C@@H](C)CC)C(C)C", "cell line": "COS-7 ETBR-GFP", "test": "calcium flux, agonist", "setting": "ETBR/ETAR ratio 1:1", "measurement": "Emax", "value": "81 ± 4%"}
{"Compound": "O=C(NCc1ccc(OC(F)(F)F)cc1)[C@H]1CCCN(c2ncnc3[nH]c(-c4ccc(N5CCOCC5)cc4)cc23)C1", "cell line": "NCI-H2228", "test": "cell growth or viability, MTT", "setting": "0.008 µg/mL, 72 h", "measurement": "inhibition", "value": "18.3%"}
{"Compound": "CCNc1cc2c(cc1C)C1(c3cc(C)c(NCC)cc3O2)c2ccccc2C(=O)N1N=Cc1c[c-]c(-c2ccccn2)cc1.Cc1c(C)c(-c2ccc(-c3ccccc3)cc2)[c-](C)c1C.[Cl-].[Ir+3]", "cell line": "A549", "test": "mitochondrial membrane potential loss, JC-1 flow cytometry", "setting": "1.0 x IC50, 24 h", "measurement": "JC-1 monomer cells", "value": "3.76 ± 0.4%"}
{"note": "Excerpt of the above:"}
{"Compound": "Cc1ccc(-n2cc(CSc3nc4ccccc4n3Cc3cn(-c4ccc(C)cc4)nn3)nn2)cc1", "cell line": "Caco-2", "test": "MTT", "setting": "7.81 ppm", "measurement": "viability", "value": "61.4%"}
{"Compound": "O=C(NCc1ccc(OC(F)(F)F)cc1)[C@H]1CCCN(c2ncnc3[nH]c(-c4cccs4)cc23)C1", "cell line": "NCI-H2228", "test": "cell growth or viability, MTT", "setting": "0.008 µg/mL, 72 h", "measurement": "inhibition", "value": "15.2%"}
{"Compound": "CCCC[C@H](NC(=O)[C@H](CC(C)C)NC(=O)[C@H](CO)NC(=O)[C@H](CO)NC(=O)[C@H](C)NC(=O)[C@H](CO)NC(=O)[C@H](C)N)C(=O)N[C@@H](CC(=O)O)C(=O)N[C@@H](CCCCN)C(=O)N[C@@H](CCC(=O)O)C(=O)N[C@@H](C)C(=O)N[C@H](C(=O)N[C@@H](Cc1ccc(O)cc1)C(=O)N[C@@H](Cc1ccccc1)C(=O)N[C@@H](C)C(=O)N[C@@H](Cc1c[nH]cn1)C(=O)N[C@@H](CC(C)C)C(=O)N[C@@H](CC(=O)O)C(=O)N[C@H](C(=O)N[C@H](C(=O)N[C@@H](Cc1c[nH]c2ccccc12)C(=O)O)[C@@H](C)CC)[C@@H](C)CC)C(C)C", "cell line": "COS-7 ETBR-GFP", "test": "calcium flux, agonist", "setting": "ETBR/ETAR ratio 1:1", "measurement": "Emax", "value": "81 ± 4%"}
